{"data": "Published values of several laboratories", "DRD3": "D(3) dopamine receptor (DRD3, Homo sapiens, UniProt P35462)", "PIK3CB": "Phosphatidylinositol 4,5-bisphosphate 3-kinase catalytic subunit beta isoform (PIK3CB, Homo sapiens, UniProt P42338)", "CES2": "Cocaine esterase (CES2, Homo sapiens, UniProt O00748)", "HDAC8": "Histone deacetylase 8 (HDAC8, Homo sapiens, UniProt Q9BY41)", "PARP2": "Poly [ADP-ribose] polymerase 2 (PARP2, Homo sapiens, UniProt Q9UGN5)", "HDAC1": "Histone deacetylase 1 (HDAC1, Homo sapiens, UniProt Q13547)", "PARP10": "Protein mono-ADP-ribosyltransferase PARP10 (PARP10, Homo sapiens, UniProt Q53GL7)", "note": "Values joined by “and” are separate records of one study, mostly repeats; a detail may differ.", "UniProt P42338, sequence (whole entry, looked up)": "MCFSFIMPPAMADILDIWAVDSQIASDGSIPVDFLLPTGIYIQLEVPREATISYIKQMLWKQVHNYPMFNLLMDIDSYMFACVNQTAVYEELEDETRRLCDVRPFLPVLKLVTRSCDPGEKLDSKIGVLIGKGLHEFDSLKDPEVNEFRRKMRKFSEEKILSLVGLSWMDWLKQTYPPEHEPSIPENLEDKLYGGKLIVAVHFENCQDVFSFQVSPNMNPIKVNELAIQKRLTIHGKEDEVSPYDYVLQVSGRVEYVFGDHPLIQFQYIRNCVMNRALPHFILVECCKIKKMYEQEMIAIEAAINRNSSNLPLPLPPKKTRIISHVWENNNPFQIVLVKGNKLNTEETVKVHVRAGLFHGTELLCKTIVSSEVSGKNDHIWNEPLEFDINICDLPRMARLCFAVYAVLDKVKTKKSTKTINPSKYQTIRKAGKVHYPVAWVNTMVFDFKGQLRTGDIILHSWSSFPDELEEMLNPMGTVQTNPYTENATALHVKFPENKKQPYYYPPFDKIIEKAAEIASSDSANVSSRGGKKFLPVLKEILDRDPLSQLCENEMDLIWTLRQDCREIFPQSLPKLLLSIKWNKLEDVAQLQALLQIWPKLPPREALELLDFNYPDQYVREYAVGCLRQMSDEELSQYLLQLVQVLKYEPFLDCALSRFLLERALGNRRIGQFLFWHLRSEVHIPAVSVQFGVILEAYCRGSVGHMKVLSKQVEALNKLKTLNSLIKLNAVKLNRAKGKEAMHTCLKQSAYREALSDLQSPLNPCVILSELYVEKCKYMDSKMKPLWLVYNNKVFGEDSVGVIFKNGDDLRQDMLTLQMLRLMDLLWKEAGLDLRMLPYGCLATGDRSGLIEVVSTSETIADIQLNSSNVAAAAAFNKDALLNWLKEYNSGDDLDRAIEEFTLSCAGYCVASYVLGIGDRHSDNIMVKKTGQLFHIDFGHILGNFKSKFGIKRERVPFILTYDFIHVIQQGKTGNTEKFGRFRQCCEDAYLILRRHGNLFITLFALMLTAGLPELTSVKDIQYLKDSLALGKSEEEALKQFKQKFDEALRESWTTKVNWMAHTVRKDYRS", "UniProt Q9BY41, sequence (whole entry, looked up)": "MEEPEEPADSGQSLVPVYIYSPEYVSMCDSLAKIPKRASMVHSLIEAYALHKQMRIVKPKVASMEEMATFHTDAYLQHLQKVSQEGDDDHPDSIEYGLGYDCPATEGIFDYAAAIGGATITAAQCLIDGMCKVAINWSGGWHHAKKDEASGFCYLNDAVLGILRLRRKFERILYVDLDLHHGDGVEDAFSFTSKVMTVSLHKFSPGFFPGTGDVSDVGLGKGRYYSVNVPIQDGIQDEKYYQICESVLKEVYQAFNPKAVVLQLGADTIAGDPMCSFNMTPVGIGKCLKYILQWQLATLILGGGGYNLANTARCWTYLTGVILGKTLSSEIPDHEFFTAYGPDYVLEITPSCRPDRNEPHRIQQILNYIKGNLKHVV", "UniProt Q53GL7, sequence (whole entry, looked up)": "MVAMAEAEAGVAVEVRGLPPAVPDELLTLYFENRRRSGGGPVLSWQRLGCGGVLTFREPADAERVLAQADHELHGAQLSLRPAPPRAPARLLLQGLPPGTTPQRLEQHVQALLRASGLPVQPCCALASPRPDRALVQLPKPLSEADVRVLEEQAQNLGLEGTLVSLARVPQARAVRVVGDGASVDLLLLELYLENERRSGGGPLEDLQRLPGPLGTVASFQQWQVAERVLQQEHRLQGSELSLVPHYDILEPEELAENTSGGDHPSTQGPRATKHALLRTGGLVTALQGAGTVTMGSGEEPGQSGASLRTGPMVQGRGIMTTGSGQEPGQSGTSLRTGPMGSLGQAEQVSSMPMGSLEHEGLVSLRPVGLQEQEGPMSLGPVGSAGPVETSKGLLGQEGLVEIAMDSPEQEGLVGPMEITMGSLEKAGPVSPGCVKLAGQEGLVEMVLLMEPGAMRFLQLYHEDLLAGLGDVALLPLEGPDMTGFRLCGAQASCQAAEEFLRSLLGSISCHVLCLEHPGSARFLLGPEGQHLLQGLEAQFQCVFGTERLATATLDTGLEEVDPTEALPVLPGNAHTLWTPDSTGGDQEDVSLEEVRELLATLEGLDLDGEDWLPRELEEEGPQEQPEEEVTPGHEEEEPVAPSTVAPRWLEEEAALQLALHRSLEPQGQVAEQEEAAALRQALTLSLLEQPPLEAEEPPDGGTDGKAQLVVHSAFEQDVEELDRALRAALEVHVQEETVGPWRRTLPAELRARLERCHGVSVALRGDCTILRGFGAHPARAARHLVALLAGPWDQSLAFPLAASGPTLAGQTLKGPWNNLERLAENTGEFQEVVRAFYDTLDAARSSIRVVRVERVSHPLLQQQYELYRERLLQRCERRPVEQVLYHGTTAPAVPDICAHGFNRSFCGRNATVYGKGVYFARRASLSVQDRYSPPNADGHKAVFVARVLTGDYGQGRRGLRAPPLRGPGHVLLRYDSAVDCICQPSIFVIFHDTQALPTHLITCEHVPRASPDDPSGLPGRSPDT", "UniProt O00748, sequence (whole entry, looked up)": "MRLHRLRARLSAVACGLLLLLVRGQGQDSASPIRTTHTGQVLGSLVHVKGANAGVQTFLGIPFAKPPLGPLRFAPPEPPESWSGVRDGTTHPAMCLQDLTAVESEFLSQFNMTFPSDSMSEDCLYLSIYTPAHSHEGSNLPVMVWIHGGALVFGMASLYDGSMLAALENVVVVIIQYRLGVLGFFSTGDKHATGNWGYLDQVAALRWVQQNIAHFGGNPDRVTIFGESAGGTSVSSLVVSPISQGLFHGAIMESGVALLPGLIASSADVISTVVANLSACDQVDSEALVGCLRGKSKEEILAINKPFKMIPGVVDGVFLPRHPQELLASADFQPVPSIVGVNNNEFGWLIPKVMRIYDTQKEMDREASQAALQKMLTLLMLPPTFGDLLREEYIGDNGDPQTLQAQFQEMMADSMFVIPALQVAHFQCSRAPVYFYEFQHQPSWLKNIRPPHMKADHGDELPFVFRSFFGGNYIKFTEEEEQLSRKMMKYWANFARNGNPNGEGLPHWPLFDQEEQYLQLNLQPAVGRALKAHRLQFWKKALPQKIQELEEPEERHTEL", "UniProt P35462, sequence (whole entry, looked up)": "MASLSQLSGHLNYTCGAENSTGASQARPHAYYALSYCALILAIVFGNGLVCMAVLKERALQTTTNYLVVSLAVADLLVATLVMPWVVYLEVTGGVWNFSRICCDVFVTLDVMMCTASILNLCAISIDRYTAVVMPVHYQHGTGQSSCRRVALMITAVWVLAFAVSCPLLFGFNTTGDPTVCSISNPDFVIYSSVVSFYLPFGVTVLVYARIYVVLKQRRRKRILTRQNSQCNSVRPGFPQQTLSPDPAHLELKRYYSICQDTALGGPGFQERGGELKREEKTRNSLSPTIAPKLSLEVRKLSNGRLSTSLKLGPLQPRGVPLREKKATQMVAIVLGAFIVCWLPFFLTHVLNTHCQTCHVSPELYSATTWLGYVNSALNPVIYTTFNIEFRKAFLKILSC", "UniProt Q9UGN5, sequence (whole entry, looked up)": "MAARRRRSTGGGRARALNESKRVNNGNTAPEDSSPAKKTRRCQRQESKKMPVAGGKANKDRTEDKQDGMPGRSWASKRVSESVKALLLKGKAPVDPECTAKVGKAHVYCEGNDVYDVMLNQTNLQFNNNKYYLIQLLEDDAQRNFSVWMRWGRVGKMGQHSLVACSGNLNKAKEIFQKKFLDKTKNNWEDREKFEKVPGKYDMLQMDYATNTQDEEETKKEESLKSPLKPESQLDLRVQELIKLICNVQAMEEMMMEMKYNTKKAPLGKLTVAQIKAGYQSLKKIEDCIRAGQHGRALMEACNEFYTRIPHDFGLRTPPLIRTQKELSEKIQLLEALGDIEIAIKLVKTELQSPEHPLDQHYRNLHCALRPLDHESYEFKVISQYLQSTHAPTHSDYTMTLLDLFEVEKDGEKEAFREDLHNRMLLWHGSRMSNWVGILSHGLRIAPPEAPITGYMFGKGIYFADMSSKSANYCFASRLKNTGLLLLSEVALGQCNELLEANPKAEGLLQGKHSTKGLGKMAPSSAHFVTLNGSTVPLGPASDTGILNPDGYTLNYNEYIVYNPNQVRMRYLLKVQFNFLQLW", "UniProt Q9UM07, sequence (whole entry, looked up)": "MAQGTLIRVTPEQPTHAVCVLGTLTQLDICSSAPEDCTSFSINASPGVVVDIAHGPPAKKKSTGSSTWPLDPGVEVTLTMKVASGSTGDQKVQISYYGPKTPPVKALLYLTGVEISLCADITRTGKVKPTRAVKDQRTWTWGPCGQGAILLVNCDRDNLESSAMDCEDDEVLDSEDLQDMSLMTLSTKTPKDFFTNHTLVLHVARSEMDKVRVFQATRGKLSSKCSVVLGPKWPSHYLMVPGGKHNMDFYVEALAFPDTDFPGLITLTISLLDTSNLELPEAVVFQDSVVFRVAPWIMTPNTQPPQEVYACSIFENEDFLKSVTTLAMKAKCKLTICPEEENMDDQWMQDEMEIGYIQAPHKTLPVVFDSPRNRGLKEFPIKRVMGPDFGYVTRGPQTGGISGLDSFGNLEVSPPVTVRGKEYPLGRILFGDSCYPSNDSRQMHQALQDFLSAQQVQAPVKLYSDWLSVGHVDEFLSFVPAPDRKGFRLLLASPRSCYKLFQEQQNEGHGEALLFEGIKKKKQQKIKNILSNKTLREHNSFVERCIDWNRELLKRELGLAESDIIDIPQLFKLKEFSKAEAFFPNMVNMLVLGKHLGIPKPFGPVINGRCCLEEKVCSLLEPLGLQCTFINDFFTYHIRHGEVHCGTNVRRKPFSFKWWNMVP", "UniProt Q8N6T7, sequence (whole entry, looked up)": "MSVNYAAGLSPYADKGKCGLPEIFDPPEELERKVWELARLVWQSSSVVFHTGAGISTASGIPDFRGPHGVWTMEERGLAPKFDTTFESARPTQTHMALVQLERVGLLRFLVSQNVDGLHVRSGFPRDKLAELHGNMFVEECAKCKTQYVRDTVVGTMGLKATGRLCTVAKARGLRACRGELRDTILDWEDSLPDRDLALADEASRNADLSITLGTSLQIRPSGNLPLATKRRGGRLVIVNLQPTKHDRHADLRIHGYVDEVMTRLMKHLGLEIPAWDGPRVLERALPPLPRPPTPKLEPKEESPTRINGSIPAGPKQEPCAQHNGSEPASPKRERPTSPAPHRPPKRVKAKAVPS"}
{"Compound": "Cc1ccc(NS(=O)(=O)c2c(C)[nH]c(C)c2C(=O)N2CCC(F)(F)C2)cc1N(C)C", "target": "DRD3", "assay": "β-arrestin recruitment, antagonist", "IC50": "48 µM"}
{"Compound": "CCC(C(=O)N1C(=O)C(=Nc2ccc(Cl)cc2Br)c2ccccc21)c1ccccc1 (centres unmarked)", "target": "PIK3CB", "assay": "enzyme activity, inhibitor, ADP detection", "IC50": "0.145 µM"}
{"Compound": "CCOC(=O)N1CCC(=C2c3ccc(Cl)cc3CCc3cccnc32)CC1", "target": "CES2", "assay": "enzyme activity, inhibitor, fluorescence", "conditions": "with preincubation", "IC50": "9 µM"}
{"Compound": "O=C(NO)c1cccc(OS(=O)(=O)Oc2ccc3c(c2)OCO3)c1", "target": "HDAC8", "assay": "enzyme activity, inhibitor, fluorescence", "IC50": "0.091 µM"}
{"Compound": "c1ccc(Cc2[nH]nc(-c3ccccn3)c2-c2ccnc3ccccc23)cc1", "target": "YCK2 (Candida albicans, UniProt A0A1D8PKB4)", "assay": "enzyme activity, inhibitor, ADP detection", "IC50": "> 4 µM and 4.7 µM"}
{"Compound": "O=C(NO)c1cccc(OS(=O)(=O)Oc2cccc(-c3ccccc3)c2)c1", "target": "HDAC8", "assay": "enzyme activity, inhibitor, fluorescence", "IC50": "0.718 µM"}
{"Compound": "O=c1[nH]c2c(nnn2C2CCCCC2)c2ccc(F)cc12", "target": "PARP2", "assay": "enzyme activity, inhibitor", "IC50": "> 10 µM"}
{"Compound": "Cc1ccc(CN2C(=O)C(=Nc3cccc(Cl)c3)c3ccccc32)cc1", "target": "PIK3CB", "assay": "enzyme activity, inhibitor, ADP detection", "IC50": "0.0648 µM"}
{"Compound": "Cc1[nH]c(C)c(S(=O)(=O)Nc2ccc(C(F)(F)F)c3ncccc23)c1C(=O)N1CCC(F)(F)C1", "target": "DRD3", "assay": "β-arrestin recruitment, antagonist", "IC50": "12 µM"}
{"Compound": "CC(C)(C)c1ccc(C(O)CCCN2CCC(C(O)(c3ccccc3)c3ccccc3)CC2)cc1 (centres unmarked)", "target": "CES2", "assay": "enzyme activity, inhibitor, fluorescence", "conditions": "with preincubation", "IC50": "12.8 µM"}
{"Compound": "O=c1[nH]c2c(nnn2Cc2ccccc2C(F)(F)F)c2ccccc12", "target": "PARP2", "assay": "enzyme activity, inhibitor", "IC50": "> 10 µM"}
{"Compound": "C[C@@H](Oc1cc(-c2cnn(C3CCNCC3)c2)cnc1N)c1c(Cl)ccc(F)c1Cl", "target": "CES2", "assay": "enzyme activity, inhibitor, fluorescence", "conditions": "with preincubation", "IC50": "23.7 µM"}
{"Compound": "CCCCCn1nnc2c3ccccc3c(=O)[nH]c21", "target": "PARP2", "assay": "enzyme activity, inhibitor", "IC50": "> 10 µM"}
{"Compound": "Cc1nc(Nc2ncc(C(=O)Nc3c(C)cccc3Cl)s2)cc(N2CCN(CCO)CC2)n1", "target": "CES2", "assay": "enzyme activity, inhibitor, fluorescence", "conditions": "with preincubation", "IC50": "51 µM"}
{"Compound": "N#C[C@@]12C[C@@H]1[C@@H](n1cnc3c(N[C@@H](C4CCC4)C4CC4)nc(I)nc31)[C@H](O)[C@@H]2O", "target": "Cytochrome P450 1A2 (CYP1A2, Homo sapiens, UniProt P05177)", "assay": "enzyme activity, inhibitor", "IC50": "> 20 µM and 46.5 µM"}
{"Compound": "CC(=O)Nc1cccc(-n2c(=O)n(C3CC3)c(=O)c3c(Nc4ccc(I)cc4F)n(C)c(=O)c(C)c32)c1", "target": "CES2", "assay": "enzyme activity, inhibitor, fluorescence", "conditions": "with preincubation", "IC50": "17.2 µM"}
{"Compound": "S=C=NCc1ccccc1", "target": "EPHX2 (Homo sapiens, UniProt P34913)", "assay": "enzyme activity, inhibitor, fluorescence", "IC50": "42.9 µM"}
{"Compound": "COc1ccc(OS(=O)(=O)Oc2cccc(C(=O)NO)c2)cc1OC", "target": "HDAC1", "assay": "enzyme activity, inhibitor, fluorescence", "IC50": "2.37 µM"}
{"Compound": "CCN(CC)CCNC(=O)c1c(C)[nH]c(/C=C2\\C(=O)Nc3ccc(F)cc32)c1C", "target": "CES2", "assay": "enzyme activity, inhibitor, fluorescence", "conditions": "with preincubation", "IC50": "52.4 µM"}
{"Compound": "O=C(NO)c1cccc(OS(=O)(=O)Oc2ccc3ccccc3c2)c1", "target": "HDAC8", "assay": "enzyme activity, inhibitor, fluorescence", "IC50": "0.083 µM"}
{"Compound": "CCCN(CCC)S(=O)(=O)c1ccc(C(=O)O)cc1", "target": "TAS2R14 (Homo sapiens, UniProt Q9NYV8, S65A)", "assay": "inositol phosphate, antagonist, TR-FRET", "IC50": "2300 µM"}
{"Compound": "CNC(=O)c1cc2c(Oc3ccc(NC(=O)C4(C(=O)Nc5ccc(F)cc5)CC4)cc3)ccnc2cc1OC", "target": "MET (Homo sapiens, UniProt P08581, D1228N)", "assay": "enzyme activity, inhibitor, radiometric", "IC50": "0.013 µM"}
{"Compound": "Cc1nc(N(Cc2ccccc2)c2ccc3c(c2)/C(=C/c2ccccc2)C(=O)N3Cc2ccccc2)c2ccccc2n1 (mixture of isomers)", "target": "PIK3CB", "assay": "enzyme activity, inhibitor, ADP detection", "IC50": "0.0942 µM"}
{"Compound": "O=C(NO)c1cncc(OS(=O)(=O)Oc2ccc(-n3ccnc3)cc2)c1", "target": "HDAC1", "assay": "enzyme activity, inhibitor, fluorescence", "IC50": "1 µM"}
{"Compound": "Nc1nc2c(s1)C(c1ccccc1Cl)CC(=O)N2 (centres unmarked)", "target": "ALDH1A1 (Homo sapiens, UniProt P00352)", "assay": "enzyme activity, inhibitor, fluorescence", "IC50": "< 10 µM"}
{"Compound": "CCCCCCC#Cc1cncc(-c2nnc(SCc3cc([N+](=O)[O-])cc([N+](=O)[O-])c3)n2CCCN)c1", "target": "mraY (Staphylococcus aureus, UniProt Q2FZ93)", "assay": "enzyme activity, inhibitor", "IC50": "25 µM"}
{"Compound": "O=C(NO)c1cc(F)cc(OS(=O)(=O)Oc2ccc(-n3ccnc3)cc2)c1", "target": "HDAC6 (Homo sapiens, UniProt Q9UBN7)", "assay": "enzyme activity, inhibitor, fluorescence", "IC50": "0.101 µM"}
{"Compound": "CC(C)c1cccc(C(C)C)c1N=C1C(=O)N(Cc2cccc(Cl)c2)c2ccccc21", "target": "PIK3CB", "assay": "enzyme activity, inhibitor, ADP detection", "IC50": "0.0163 µM"}
{"Compound": "Cc1ccc(Cn2nnc3c4ccc(F)cc4c(=O)[nH]c32)cc1", "target": "PARP10", "assay": "enzyme activity, inhibitor", "IC50": "> 10 µM"}
{"Compound": "Cc1[nH]c(C)c(S(=O)(=O)Nc2ccc(I)c(Cl)c2)c1C(=O)N1CCC(F)(F)C1", "target": "DRD3", "assay": "β-arrestin recruitment, antagonist", "IC50": "5 µM"}
{"Compound": "Cc1cccc(Cn2nnc3c4ccc(F)cc4c(=O)[nH]c32)c1", "target": "PARP10", "assay": "enzyme activity, inhibitor", "IC50": "> 10 µM"}
{"Compound": "Cc1nc(Nc2ccc3c(c2)/C(=C/c2ccccc2)C(=O)N3C)c2ccccc2n1", "target": "PIK3CB", "assay": "enzyme activity, inhibitor, ADP detection", "IC50": "0.49 µM"}
{"Compound": "FC(F)(F)c1cccc(Nc2ncnc3ccc(-c4ccoc4)cc23)c1", "target": "EGFR (Homo sapiens, UniProt P00533)", "assay": "enzyme activity, inhibitor, radiometric", "IC50": "0.00447 µM"}
{"Compound": "O=C(NO)c1cccc(OS(=O)(=O)Oc2ccc(C(F)(F)F)cc2)c1", "target": "HDAC8", "assay": "enzyme activity, inhibitor, fluorescence", "IC50": "1.22 µM"}
{"Compound": "NC(=O)c1ccc(C(=O)NOCc2ccc3sc4ccccc4c3c2)cc1", "target": "SIRT6 (Homo sapiens, UniProt Q8N6T7)", "assay": "enzyme activity, inhibitor, fluorescence", "IC50": "1.67 µM"}
{"Compound": "Cc1[nH]c(C)c(S(=O)(=O)Nc2ccc(C(F)(F)F)c(Cl)c2)c1C(=O)NCC(F)F", "target": "DRD3", "assay": "G protein activation, antagonist, BRET", "IC50": "7.2 µM"}
{"Compound": "COc1cccc(OS(=O)(=O)Oc2cccc(C(=O)NO)c2)c1", "target": "HDAC8", "assay": "enzyme activity, inhibitor, fluorescence", "IC50": "0.088 µM"}
{"Compound": "CN1CCN(c2ccc(Nc3ncc4cc(C#N)c(=O)n(C5CCCC5)c4n3)cc2)CC1", "target": "ACVR1B (Homo sapiens, UniProt P36896)", "assay": "enzyme activity, inhibitor", "IC50": "8.59 µM"}
{"Compound": "O=C1C(=Nc2cccc(Cl)c2)c2ccccc2N1Cc1ccc([N+](=O)[O-])cc1", "target": "PIK3CB", "assay": "enzyme activity, inhibitor, ADP detection", "IC50": "0.0137 µM"}
{"Compound": "CCOC(=O)c1ccccc1-c1c2ccc(=O)cc-2oc2cc(OCCCn3nnnc3C(C3CC3)N3CCSC3)ccc12 (centres unmarked)", "target": "ALOX15 (Homo sapiens, UniProt P16050)", "assay": "enzyme activity, inhibitor, absorbance", "IC50": "> 100 µM"}
{"Compound": "Cc1[nH]c(C)c(S(=O)(=O)Nc2ccc(C(F)(F)F)c(Cl)c2)c1C(=O)N1C[C@@H](F)[C@@H](F)C1", "target": "DRD3", "assay": "β-arrestin recruitment, antagonist", "IC50": "2.8 µM"}
{"Compound": "N=C(CCl)NCCC[C@H](NC(=O)c1ccc2cc(-c3cc(F)c(F)c(F)c3)ccc2c1)C(=O)NCc1ccccc1", "target": "PADI4 (Homo sapiens, UniProt Q9UM07)", "assay": "enzyme activity, inhibitor, fluorescence", "conditions": "with preincubation", "IC50": "> 2 µM and 2.1 µM"}
{"Compound": "COC[C@H](NC(=O)[C@H](CC(C)C)NC(=O)[C@H](Cc1ccccc1)N=[N+]=[N-])C(=O)N[C@H](/C=C/S(C)(=O)=O)Cc1ccc(CN)cc1", "target": "PSMB8 (Homo sapiens, UniProt P28062)", "assay": "enzyme activity, inhibitor", "conditions": "lysate", "IC50": "5.22 µM"}
{"Compound": "Cc1[nH]c(C)c(S(=O)(=O)Nc2ccc(Cl)cc2C(F)(F)F)c1C(=O)N1CCC(F)(F)C1", "target": "DRD3", "assay": "G protein activation, antagonist, BRET", "IC50": "14 µM"}
{"Compound": "COc1cc2c(cc1OC)C(=O)/C(=C/c1cccnc1)C2", "target": "CES2", "assay": "enzyme activity, inhibitor, fluorescence", "conditions": "with preincubation", "IC50": "8.08 µM"}
{"Compound": "Cc1[nH]c(C)c(S(=O)(=O)Nc2cc(Cl)c(Cl)c(Cl)c2)c1C(=O)N1CCC(F)(F)C1", "target": "DRD3", "assay": "β-arrestin recruitment, antagonist", "IC50": "5.8 µM"}
{"Compound": "Cc1ccc(Cn2nnc3c4ccccc4c(=O)[nH]c32)cc1", "target": "PARP2", "assay": "enzyme activity, inhibitor", "IC50": "> 10 µM"}
{"Compound": "COc1cc2c(cc1OC)C(=O)/C(=C/c1cccc(O)c1)C2", "target": "CES2", "assay": "enzyme activity, inhibitor, fluorescence", "conditions": "with preincubation", "IC50": "3.92 µM"}
{"Compound": "Cc1[nH]c(C)c(S(=O)(=O)Nc2ccc(C(C)C)cc2)c1C(=O)N1CCCC1", "target": "DRD3", "assay": "G protein activation, antagonist, BRET", "IC50": "12 µM"}
{"Compound": "CCCCCn1nnc2c3ccc(F)cc3c(=O)[nH]c21", "target": "PARP10", "assay": "enzyme activity, inhibitor", "IC50": "0.224 µM"}
{"note": "Repeated from above:"}
{"Compound": "O=C(NO)c1cccc(OS(=O)(=O)Oc2ccc3c(c2)OCO3)c1", "target": "HDAC8", "assay": "enzyme activity, inhibitor, fluorescence", "IC50": "0.091 µM"}
{"Compound": "Cc1nc(Nc2ccc3c(c2)/C(=C/c2ccccc2)C(=O)N3C)c2ccccc2n1", "target": "PIK3CB", "assay": "enzyme activity, inhibitor, ADP detection", "IC50": "0.49 µM"}
{"Compound": "CCC(C(=O)N1C(=O)C(=Nc2ccc(Cl)cc2Br)c2ccccc21)c1ccccc1 (centres unmarked)", "target": "PIK3CB", "assay": "enzyme activity, inhibitor, ADP detection", "IC50": "0.145 µM"}
{"Compound": "CNC(=O)c1cc2c(Oc3ccc(NC(=O)C4(C(=O)Nc5ccc(F)cc5)CC4)cc3)ccnc2cc1OC", "target": "MET (Homo sapiens, UniProt P08581, D1228N)", "assay": "enzyme activity, inhibitor, radiometric", "IC50": "0.013 µM"}
{"Compound": "Cc1[nH]c(C)c(S(=O)(=O)Nc2ccc(Cl)cc2C(F)(F)F)c1C(=O)N1CCC(F)(F)C1", "target": "DRD3", "assay": "G protein activation, antagonist, BRET", "IC50": "14 µM"}
{"Compound": "CCCN(CCC)S(=O)(=O)c1ccc(C(=O)O)cc1", "target": "TAS2R14 (Homo sapiens, UniProt Q9NYV8, S65A)", "assay": "inositol phosphate, antagonist, TR-FRET", "IC50": "2300 µM"}
{"Compound": "Cc1[nH]c(C)c(S(=O)(=O)Nc2ccc(C(F)(F)F)c(Cl)c2)c1C(=O)N1C[C@@H](F)[C@@H](F)C1", "target": "DRD3", "assay": "β-arrestin recruitment, antagonist", "IC50": "2.8 µM"}
{"Compound": "Nc1nc2c(s1)C(c1ccccc1Cl)CC(=O)N2 (centres unmarked)", "target": "ALDH1A1 (Homo sapiens, UniProt P00352)", "assay": "enzyme activity, inhibitor, fluorescence", "IC50": "< 10 µM"}
